Published values of several laboratories.
Parts stem from different laboratories: compare values within a part only. “And” joins repeats or separate records; there may be more than shown.
Chain of UniProt P57078 (whole entry, looked up): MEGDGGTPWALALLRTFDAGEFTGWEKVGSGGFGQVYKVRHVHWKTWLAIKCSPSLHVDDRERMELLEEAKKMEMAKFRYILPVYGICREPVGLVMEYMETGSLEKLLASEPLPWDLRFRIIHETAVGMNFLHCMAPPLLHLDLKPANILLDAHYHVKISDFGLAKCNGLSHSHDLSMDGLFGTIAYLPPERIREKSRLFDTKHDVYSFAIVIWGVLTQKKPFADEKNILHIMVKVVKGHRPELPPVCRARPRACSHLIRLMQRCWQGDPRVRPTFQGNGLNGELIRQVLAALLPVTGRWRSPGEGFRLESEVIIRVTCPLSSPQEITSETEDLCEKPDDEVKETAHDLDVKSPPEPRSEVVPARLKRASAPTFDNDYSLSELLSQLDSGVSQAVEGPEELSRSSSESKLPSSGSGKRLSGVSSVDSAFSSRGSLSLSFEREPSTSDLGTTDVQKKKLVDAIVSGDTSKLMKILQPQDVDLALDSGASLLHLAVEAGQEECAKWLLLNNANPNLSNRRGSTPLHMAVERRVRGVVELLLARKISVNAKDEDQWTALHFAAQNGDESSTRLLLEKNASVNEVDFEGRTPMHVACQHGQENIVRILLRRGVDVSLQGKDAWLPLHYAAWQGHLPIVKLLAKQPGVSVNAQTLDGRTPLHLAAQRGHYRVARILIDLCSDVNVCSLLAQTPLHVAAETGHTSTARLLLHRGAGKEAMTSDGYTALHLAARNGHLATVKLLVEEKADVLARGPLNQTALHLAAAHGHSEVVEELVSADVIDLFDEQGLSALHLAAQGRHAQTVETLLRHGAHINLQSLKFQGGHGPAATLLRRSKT
Chain of UniProt Q99755 (whole entry, looked up): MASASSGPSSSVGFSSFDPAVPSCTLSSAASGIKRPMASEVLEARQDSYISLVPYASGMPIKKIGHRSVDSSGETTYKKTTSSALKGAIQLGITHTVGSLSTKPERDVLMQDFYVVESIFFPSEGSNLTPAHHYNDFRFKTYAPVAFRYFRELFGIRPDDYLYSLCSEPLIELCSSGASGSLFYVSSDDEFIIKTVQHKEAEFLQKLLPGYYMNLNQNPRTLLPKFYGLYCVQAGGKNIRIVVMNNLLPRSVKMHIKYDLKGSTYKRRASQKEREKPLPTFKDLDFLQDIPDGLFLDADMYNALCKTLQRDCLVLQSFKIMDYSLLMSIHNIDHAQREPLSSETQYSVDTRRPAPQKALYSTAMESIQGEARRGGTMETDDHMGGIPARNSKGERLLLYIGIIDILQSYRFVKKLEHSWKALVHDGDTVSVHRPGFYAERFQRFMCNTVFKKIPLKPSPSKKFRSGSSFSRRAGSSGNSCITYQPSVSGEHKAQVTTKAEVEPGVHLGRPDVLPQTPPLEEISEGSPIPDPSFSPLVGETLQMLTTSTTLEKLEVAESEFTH
Chain of UniProt Q8IY84 (whole entry, looked up): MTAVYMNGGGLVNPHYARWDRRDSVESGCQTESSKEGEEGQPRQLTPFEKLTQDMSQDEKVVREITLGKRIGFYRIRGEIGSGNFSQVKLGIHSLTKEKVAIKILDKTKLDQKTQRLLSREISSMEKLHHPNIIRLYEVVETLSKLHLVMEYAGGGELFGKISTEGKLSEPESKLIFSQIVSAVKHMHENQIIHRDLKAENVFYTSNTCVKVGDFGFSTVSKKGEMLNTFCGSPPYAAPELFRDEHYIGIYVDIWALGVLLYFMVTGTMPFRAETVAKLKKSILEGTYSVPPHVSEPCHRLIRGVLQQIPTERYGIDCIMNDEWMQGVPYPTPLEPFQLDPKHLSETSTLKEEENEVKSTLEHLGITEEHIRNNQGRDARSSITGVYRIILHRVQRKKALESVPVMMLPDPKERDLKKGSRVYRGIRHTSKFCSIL
Chain of UniProt Q16539 (whole entry, looked up): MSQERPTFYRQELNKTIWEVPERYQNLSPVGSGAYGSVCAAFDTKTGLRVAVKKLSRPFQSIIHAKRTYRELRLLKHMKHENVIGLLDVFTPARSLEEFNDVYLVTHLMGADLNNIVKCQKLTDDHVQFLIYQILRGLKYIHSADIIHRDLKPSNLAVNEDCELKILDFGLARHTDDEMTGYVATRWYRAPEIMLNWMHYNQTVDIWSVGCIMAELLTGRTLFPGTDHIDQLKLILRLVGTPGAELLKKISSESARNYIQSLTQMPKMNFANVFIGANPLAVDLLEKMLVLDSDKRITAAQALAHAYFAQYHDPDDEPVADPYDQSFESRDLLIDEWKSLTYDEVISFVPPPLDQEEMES
Chain of UniProt P37023 (whole entry, looked up): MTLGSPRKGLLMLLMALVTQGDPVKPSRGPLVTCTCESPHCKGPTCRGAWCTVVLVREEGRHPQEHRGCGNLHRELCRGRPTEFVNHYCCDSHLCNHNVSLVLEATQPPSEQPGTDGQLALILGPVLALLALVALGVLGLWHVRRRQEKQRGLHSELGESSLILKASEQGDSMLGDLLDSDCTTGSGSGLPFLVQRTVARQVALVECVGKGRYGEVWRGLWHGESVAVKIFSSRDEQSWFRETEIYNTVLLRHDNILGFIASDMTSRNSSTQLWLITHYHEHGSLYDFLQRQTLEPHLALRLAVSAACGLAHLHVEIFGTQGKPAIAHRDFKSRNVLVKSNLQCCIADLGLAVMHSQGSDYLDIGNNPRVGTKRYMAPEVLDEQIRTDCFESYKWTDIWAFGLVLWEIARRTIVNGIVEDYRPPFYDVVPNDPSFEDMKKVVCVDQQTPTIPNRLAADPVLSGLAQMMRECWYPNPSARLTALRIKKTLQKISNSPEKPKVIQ
Chain of UniProt P42336 (whole entry, unmodified, looked up): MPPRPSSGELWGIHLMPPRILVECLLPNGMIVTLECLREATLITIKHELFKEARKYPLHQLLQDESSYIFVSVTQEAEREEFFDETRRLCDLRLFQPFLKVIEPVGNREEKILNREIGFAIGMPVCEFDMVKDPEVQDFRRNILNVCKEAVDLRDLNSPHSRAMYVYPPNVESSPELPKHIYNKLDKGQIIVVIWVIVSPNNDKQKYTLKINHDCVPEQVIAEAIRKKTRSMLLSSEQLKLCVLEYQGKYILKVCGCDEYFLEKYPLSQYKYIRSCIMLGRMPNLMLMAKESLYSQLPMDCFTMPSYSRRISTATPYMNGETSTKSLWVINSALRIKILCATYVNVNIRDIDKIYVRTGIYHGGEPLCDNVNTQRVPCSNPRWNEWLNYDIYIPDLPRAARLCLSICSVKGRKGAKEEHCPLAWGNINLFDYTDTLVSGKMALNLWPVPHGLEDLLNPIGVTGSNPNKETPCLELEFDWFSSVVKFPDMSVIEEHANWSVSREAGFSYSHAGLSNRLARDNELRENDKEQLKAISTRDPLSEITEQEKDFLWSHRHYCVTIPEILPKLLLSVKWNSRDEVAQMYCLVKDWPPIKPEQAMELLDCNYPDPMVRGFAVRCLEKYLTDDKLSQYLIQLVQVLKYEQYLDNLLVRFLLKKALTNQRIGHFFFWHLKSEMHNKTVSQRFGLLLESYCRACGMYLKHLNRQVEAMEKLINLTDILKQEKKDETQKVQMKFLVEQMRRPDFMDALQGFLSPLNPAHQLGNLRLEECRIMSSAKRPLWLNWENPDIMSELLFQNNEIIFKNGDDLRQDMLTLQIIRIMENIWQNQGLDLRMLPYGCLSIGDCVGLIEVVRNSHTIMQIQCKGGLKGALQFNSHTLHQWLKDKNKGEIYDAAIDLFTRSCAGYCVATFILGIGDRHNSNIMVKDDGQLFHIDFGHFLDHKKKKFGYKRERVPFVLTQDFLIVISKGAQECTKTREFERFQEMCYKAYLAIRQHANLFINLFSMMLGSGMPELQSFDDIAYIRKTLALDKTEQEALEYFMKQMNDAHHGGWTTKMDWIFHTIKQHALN

Sample 1
Target: Tyrosine-protein kinase JAK2 (JAK2, Homo sapiens, UniProt O60674)
Chain of UniProt O60674 (whole entry, looked up): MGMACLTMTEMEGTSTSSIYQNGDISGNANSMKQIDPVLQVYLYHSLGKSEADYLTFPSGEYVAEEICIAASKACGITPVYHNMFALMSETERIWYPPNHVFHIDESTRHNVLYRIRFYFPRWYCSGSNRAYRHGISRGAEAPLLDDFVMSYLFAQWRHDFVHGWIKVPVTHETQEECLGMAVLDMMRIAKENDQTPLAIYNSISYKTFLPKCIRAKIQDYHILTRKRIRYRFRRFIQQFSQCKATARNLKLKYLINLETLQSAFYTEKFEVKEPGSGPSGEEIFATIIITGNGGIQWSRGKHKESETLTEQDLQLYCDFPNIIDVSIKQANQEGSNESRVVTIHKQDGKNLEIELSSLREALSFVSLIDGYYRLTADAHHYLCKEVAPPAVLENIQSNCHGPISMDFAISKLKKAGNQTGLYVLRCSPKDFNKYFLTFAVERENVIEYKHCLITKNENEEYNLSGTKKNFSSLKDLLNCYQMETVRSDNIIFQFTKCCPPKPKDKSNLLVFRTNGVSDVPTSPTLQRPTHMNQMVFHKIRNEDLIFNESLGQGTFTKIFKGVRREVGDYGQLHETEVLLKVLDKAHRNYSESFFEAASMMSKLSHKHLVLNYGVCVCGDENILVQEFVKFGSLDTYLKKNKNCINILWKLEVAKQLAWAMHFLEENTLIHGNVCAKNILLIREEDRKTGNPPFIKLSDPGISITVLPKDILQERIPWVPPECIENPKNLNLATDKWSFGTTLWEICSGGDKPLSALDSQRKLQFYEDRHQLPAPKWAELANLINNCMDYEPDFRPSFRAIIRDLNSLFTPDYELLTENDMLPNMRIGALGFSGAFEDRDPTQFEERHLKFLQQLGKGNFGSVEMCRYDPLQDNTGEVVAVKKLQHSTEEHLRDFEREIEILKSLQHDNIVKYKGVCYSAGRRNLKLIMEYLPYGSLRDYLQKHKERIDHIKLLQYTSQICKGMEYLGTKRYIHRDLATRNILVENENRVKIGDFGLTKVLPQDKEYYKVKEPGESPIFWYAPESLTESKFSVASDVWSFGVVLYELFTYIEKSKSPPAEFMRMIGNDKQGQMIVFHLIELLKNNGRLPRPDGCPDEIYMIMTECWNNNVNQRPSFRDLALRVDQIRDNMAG
Observed: enzyme activity
Action: inhibitor
Concentration: 0.5 µM
Relative to: control
Measurement: remaining activity
NC(=O)c1ccc(-c2nc(-c3ccc4c(c3)OCCO4)c(-c3ccccn3)[nH]2)cc1: 103%
O=C(c1ccccc1)c1ccc(N2CCOCC2)cc1O: 94.1%
CC(C)n1cnc2c(Nc3cccc(Cl)c3)nc(NCCO)nc21: 101%
CNc1cc2c(Nc3cccc(Br)c3)ncnc2cn1: 82.1%
CC(C)N(CCC(=O)c1ccc2ccccc2c1)Cc1ccccc1: 97.5%
COc1cc2c(N3CCN(C(=O)Nc4ccc(OC(C)C)cc4)CC3)ncnc2cc1OCCCN1CCCCC1: 101%
Nc1nc(Nc2ccc(S(N)(=O)=O)cc2)nn1C(=S)Nc1c(F)cccc1F: 3.16%
CCN(CC)CCCCN1c2ccccc2Oc2ccc(Cl)cc21: 104%
O=C1NC(=O)/C(=C/c2ccc3c(c2)OC(F)(F)O3)S1: 92.9%
C[C@@H](N)[C@H]1CC[C@H](C(=O)Nc2ccncc2)CC1: 97.7%
O=Nc1c(-c2c(O)[nH]c3ccccc23)[nH]c2ccccc12: 84.6%
O=C(O)/C=C/c1cc(Br)c(Br)c(Br)c1Br: 101%

Sample 2
Compound: C[C@@H]1CN(c2cc(-c3n[nH]c4ccc(OC5(C)CC5)cc34)ncn2)C[C@H](C)O1
Technique: competition with immobilised ligand
Measurement: remaining binding
Serine/threonine-protein kinase DCLK2 (DCLK2, Homo sapiens, UniProt Q8N568); cell-free assay; 0.1 µM: 89%
Receptor-interacting serine/threonine-protein kinase 4 (RIPK4, Homo sapiens, UniProt P57078); binding; 1 µM: 48%
Tyrosine-protein kinase ABL1, phosphorylated (ABL1, Homo sapiens, UniProt P00519, M351T); cell-free assay; 0.1 µM: 95%
Phosphatidylinositol 3-kinase catalytic subunit type 3 (PIK3C3, Homo sapiens, UniProt Q8NEB9); cell-free assay; 0.1 µM: 100%
Serine/threonine-protein kinase NIM1 (NIM1K, Homo sapiens, UniProt Q8IY84); cell-free assay; 0.1 µM: 72%
Cyclin-dependent kinase 2 (CDK2, Homo sapiens, UniProt P24941); cell-free assay; 0.1 µM: 96%
Phosphatidylinositol 4-phosphate 5-kinase type-1 alpha (PIP5K1A, Homo sapiens, UniProt Q99755); cell-free assay; 0.1 µM: 100%
Receptor-type tyrosine-protein kinase FLT3 (FLT3, Homo sapiens, UniProt P36888, N841I); cell-free assay; 0.1 µM: 46%
Receptor-type tyrosine-protein kinase FLT3 (FLT3, Homo sapiens, UniProt P36888); binding; 1 µM: 46%
Mitogen-activated protein kinase kinase kinase 7 (MAP3K7, Homo sapiens, UniProt O43318); cell-free assay; 0.1 µM: 70%
Serine/threonine-protein kinase TNNI3K (TNNI3K, Homo sapiens, UniProt Q59H18); cell-free assay; 0.1 µM: 78%
Serine/threonine-protein kinase B-raf (BRAF, Homo sapiens, UniProt P15056); cell-free assay; 0.1 µM: 91%
Dual specificity mitogen-activated protein kinase kinase 5 (MAP2K5, Homo sapiens, UniProt Q13163); cell-free assay; 0.1 µM: 90%
Mitogen-activated protein kinase 14 (MAPK14, Homo sapiens, UniProt Q16539); cell-free assay; 0.1 µM: 95%
Dual specificity mitogen-activated protein kinase kinase 4 (MAP2K4, Homo sapiens, UniProt P45985); cell-free assay; 0.1 µM: 73%
Phosphatidylinositol 4,5-bisphosphate 3-kinase catalytic subunit alpha isoform (PIK3CA, Homo sapiens, UniProt P42336, I800L); cell-free assay; 0.1 µM: 87%
Receptor-type tyrosine-protein kinase FLT3 (FLT3, Homo sapiens, UniProt P36888, ITD); cell-free assay; 0.1 µM: 100%
Activin receptor type-1-like (ACVRL1, Homo sapiens, UniProt P37023); cell-free assay; 0.1 µM: 94%

Sample 3
Host: human
Medium: microsomes or S9
Concentration: 2 µM
Time: 0.5 h
Measurement: remaining compound
COc1cccc(NC(=O)c2c(C)nc(C)c(C(=O)O)c2-c2ccc(Cl)cc2)c1: 17.4%
Cc1ccc(S(=O)(=O)Nc2ccc3nc(N4CCN(c5ccccc5)CC4)cc(C(=O)O)c3c2)cc1: 71.8%
Cc1nc(O)[nH]c(=O)c1S(=O)(=O)Nc1ccccc1C(=O)NCc1ccccc1: 77%
CC(C)C(CCN1CCN(C)CC1)c1ccco1 (stereo not shown): 59.7%
COc1ccc2c(c1)OCC(Cc1ccc(OC)c(O)c1)C2=O (stereo not shown): 26.9%
CCOC(=O)C1=C(NC(=O)CSc2nnc(-c3cc(C)on3)o2)SC2CCCCC12 (stereo not shown): 44.7%

Mixed results
COc1ccc(-c2c(Nc3ccccn3)[nH]c3c(C4=CCCCC4)c(-c4ccccc4)nn3c2=O)cc1
fluctuation (LC-MS/MS; human, plasma; oral, 50 mg once daily): 40.1% and 63.3% and 42.7%

Some of these lines once more (sample 1):
O=C(O)/C=C/c1cc(Br)c(Br)c(Br)c1Br: 101%
CC(C)N(CCC(=O)c1ccc2ccccc2c1)Cc1ccccc1: 97.5%
CCN(CC)CCCCN1c2ccccc2Oc2ccc(Cl)cc21: 104%
